Experimental data of several laboratories.
Lines come from different studies, so protocols differ. Numbers after ± are the reported error.
Chain of UniProt P08684 (whole entry, looked up): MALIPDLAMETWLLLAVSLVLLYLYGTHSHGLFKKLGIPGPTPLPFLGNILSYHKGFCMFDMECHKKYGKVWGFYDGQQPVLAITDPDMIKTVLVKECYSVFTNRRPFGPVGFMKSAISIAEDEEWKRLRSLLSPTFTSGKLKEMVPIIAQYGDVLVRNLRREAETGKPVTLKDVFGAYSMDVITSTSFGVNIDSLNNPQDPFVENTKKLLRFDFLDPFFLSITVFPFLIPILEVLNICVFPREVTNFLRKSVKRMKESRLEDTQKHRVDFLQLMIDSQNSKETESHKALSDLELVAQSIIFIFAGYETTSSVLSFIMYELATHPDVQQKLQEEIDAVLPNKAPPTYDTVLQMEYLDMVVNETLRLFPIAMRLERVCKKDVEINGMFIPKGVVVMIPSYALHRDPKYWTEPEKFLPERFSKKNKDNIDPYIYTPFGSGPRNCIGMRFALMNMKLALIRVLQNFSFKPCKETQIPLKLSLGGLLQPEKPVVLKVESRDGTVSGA

CNCc1ccc2c(c1)N(C(=O)OCc1c(F)c(F)c(F)c(F)c1F)[C@H](CNC(=N)N)[C@H]2NC(=O)C(=O)Nc1ccc(Cl)c(F)c1
cytotoxic concentration (TZM-bl; cell proliferation; 72 h): ≥ 50 µM

Cc1ccc(S(=O)(=O)Nn2c3c(cc(-c4nc5ccccc5s4)c2=O)CCCCCC3)cc1
maximum non-toxic concentration (HEp-2; trypan blue; 72 h): 130 µg/mL

Nc1ncnc2c1ncn2[C@@H]1O[C@H](CO)[C@@H](O)[C@H]1F
CC50 (SkMC; sulforhodamine B; 11 days, galactose medium): > 250 µM

CNc1c(C)n(C)n(-c2ccccc2)c1=O
mRNA level (HepaRG PXR knockout; refers to: CYP2C19; 300 µM, 72 h; relative to: untreated): increased

[64Cu+2].c1ccc(CNCc2ccc(CN3CCCN4CCNCCCN(CC4)CC3)cc2)nc1
tissue uptake (CXCR4; NOD/SCID mouse, U87 and U87-stb-CXCR4 xenografts, muscle; iv, 60 min, ex vivo): 0.36 ± 0.05 %ID/g

C/C=C/CNC(=N)NCCCCCCCCN1CCCc2ccccc2COc2ccccc2CNC(=N)NC1=O
CC50 (normal human dermal fibroblasts; MTT; 48 h): 36.2 ± 1.86 µg/mL

CCCCn1cc(C(=O)O)c(=O)c2cc(F)c(N)c([N+](=O)[O-])c21
IC50 (SW-620; cell growth or viability, SRB): 193 µM

COc1ccc2cc(NC(=O)c3cc(-c4cccnc4)nc4ccccc34)ccc2c1
Km (Cytochrome P450 3A4 (CYP3A4, Homo sapiens, UniProt P08684); substrate, LC-MS, refers to: hydroxylated metabolite M1; baculosomes): 8.7 µM

C=CC(=O)N1CCCC(n2c(=O)c3ncccc3n(Cc3ccc(Oc4ccccc4)cc3)c2=O)C1 (stereo not drawn)
intracellular concentration (HCT-116 and Rec1; 0.2 µM, 6 h): 20 to 40 nM

[64Cu+2].c1cnc(CNCc2ccc(CN3CCCN4CCNCCCN(CC4)CC3)cc2)nc1
tissue uptake (CXCR4; NOD/SCID mouse, U87 and U87-stb-CXCR4 xenografts, pancreas; iv, 60 min, ex vivo): 1.61 ± 0.19 %ID/g

COc1cc(CNC(=O)C[C@H](C)CCC=C(C)C)ccc1OCc1cn(-c2ccc(Br)cc2)nn1
growth percent (SF-295 CNS cancer cells; SRB; 10 µM, 48 h): 63.2%

CC/C=C\C/C=C\C/C=C\C/C=C\C/C=C\C/C=C\CCC(=O)OC(CO)COP(=O)([O-])OCC[N+](C)(C)C (stereo not drawn)
Papp (human brain-like endothelial cell monolayer; LC-MS; in vitro BBB model; 10 µM, 180 min, pH 7.4): 63.7 ×10⁻⁶ cm/s

CC1(C)C(/C=C/C2=C(Cl)C(=C/C=C3/N(CCCCCC(=O)O)c4ccccc4C3(C)C)/C[N+](C)(C)C2)=[N+](CCCCCC(=O)O)c2ccccc21
highest non-cytotoxic concentration (U-87 MG; cell viability, AlamarBlue; 72 h in dark, 10% FBS, tested up to 80 µM): ≥ 80 µM

c1ccc(CN2CCNCCN(Cc3ccccc3)CCNCC2)cc1
IC90 (THP-1; cytotoxicity): > 25 µM

C[C@H](CCC1OC1(C)C)[C@@H]1CC[C@]2(C)C3=C(CC[C@@]12C)[C@@]1(C)CC[C@H](O)C(C)(C)[C@@H]1CC3 (stereo partly drawn)
inhibition (HCT-15; cell growth or viability, SRB; 50 µM): 16.4%

CC/C(=C(\c1ccc(O)cc1)c1ccc(OCCN(C)CCOCCOCCOCCOCCOCCOCCOCCN(C)CCOc2ccc(/C(=C(/CC)c3ccccc3)c3ccc(O)cc3)cc2)cc1)c1ccccc1
cell density (U2OS transfected with ERβ; 10 µM, cytotoxicity): 9%

Cc1nn(-c2ccc(S(=O)(=O)N[C@@H](CO)CC(C)C)cc2)c2nn3nnnc3nc12
tail DNA (human peripheral blood lymphocytes; DNA damage, alkaline comet; 1 µM, 24 h): 13.1 ± 0.86%

CC(=O)O[C@@H]1[C@@H](OC(C)=O)[C@H](Sc2sc(C(=O)c3ccc(C)cc3)c(N)c2-c2nc3ccccc3s2)OC[C@H]1OC(C)=O
maximum non-toxic concentration (HEp-2; cytotoxicity; 72 h): 90 µg/mL

COCCn1c2ccc([N+](=O)[O-])cc2c(=O)n1Cc1ccccc1
selectivity index (Leishmania amazonensis; promastigotes, MHOM/BR/77/LTB0016; relative to: CC50 macrophages over IC50 promastigotes): 3

COc1cc(CNC(=O)C[C@H](C)CCC=C(C)C)ccc1OCc1cn(-c2ccc(Cl)c(Cl)c2)nn1
growth percent (SF-268 CNS cancer cells; SRB; 10 µM, 48 h): 58.4%

Cc1cc(/C=C/C#N)cc(C)c1Oc1nc(NC2CCN(Cc3ccc(C(N)=O)cc3)CC2)nc2ncccc12
CC50 (TZM-bl; cell growth or viability, XTT): 38 µM

C=C(c1cc(F)c(C(=O)O)c(F)c1)c1cc2c(cc1C)C(C)(C)CCC2(C)C
lowest effective concentration (TK6; cytotoxicity, GreenScreen; without S9): 0.74 µg/mL

CC(=O)O[C@@H]1[C@@H](OC(C)=O)[C@H](Sc2sc(C(=O)c3ccc(Br)cc3)c(N)c2-c2nc3ccccc3s2)OC[C@H]1OC(C)=O
maximum non-toxic concentration (HEp-2; cytotoxicity; 72 h): 100 µg/mL

Cc1cc(C#N)cc(C)c1Oc1nc(NC2CCN(Cc3ccc(C(N)=O)cc3)CC2)nc2ccccc12
CC50 (TZM-bl; cell growth or viability, XTT): > 0.247 µM

For quick reference, copied from above:
CNc1c(C)n(C)n(-c2ccccc2)c1=O
mRNA level (HepaRG PXR knockout; refers to: CYP2C19; 300 µM, 72 h; relative to: untreated): increased

[64Cu+2].c1ccc(CNCc2ccc(CN3CCCN4CCNCCCN(CC4)CC3)cc2)nc1
tissue uptake (CXCR4; NOD/SCID mouse, U87 and U87-stb-CXCR4 xenografts, muscle; iv, 60 min, ex vivo): 0.36 ± 0.05 %ID/g

C/C=C/CNC(=N)NCCCCCCCCN1CCCc2ccccc2COc2ccccc2CNC(=N)NC1=O
CC50 (normal human dermal fibroblasts; MTT; 48 h): 36.2 ± 1.86 µg/mL
